Results of several laboratories.
Every numbered part comes from another study and shows a few of its results, in no order. Substitutions count along the parent as printed.

Set 1
Target: UBE2A UBC core domain (UniProt P49459)
Technique: yeast two-hybrid
Matrix: yeast
Setting: mostly zero background
Baseline: not given
Reading: higher = stronger interaction
B1: TRIM22 RING domain (UniProt Q8IYM9); chain KEVKMSPQEGQKRDVCEHHGKKLQIFCKEDGKVICWVCELSQEHQGHQTFRINEVVKECQEK
B2: RNF181 RING domain (UniProt Q9P0P0); chain VIRGSQAELKCPVCLLEFEEEETAIEMPCHHLFHSSCILPWLSKTNSCPLCRYELPTDDDTY
`ALDRLEKLLRCSRCTNILREPVCLGGCEHIFCSNCVSDCIGTGCPVCYTPAWIQDLKI (BARD1 RING domain (UniProt Q99728))` — result for “lacZ reporter activity”: 0.
For `QLRRLQEERTCKVCLDRAVSIVFVPCGHLVCAECAPGLQLCPICRAPVRSRVRTF (BIRC7 RING domain (UniProt Q96CA5))`, “lacZ reporter activity” read 0.
Under “lacZ reporter activity”, `KITELNPHLMCVLCGGYFIDATTIIECLHSFCKTCIVRYLETSKYCPICDVQVHKTRPLL (BMI1 RING domain (UniProt P35226))` is recorded as 0.
`MDDQGCPRCKTTKYRNPSLKLMVNVCGHTLCESCVDLLFVRGAGNCPECGTPLRKSNFRV (MNAT1 RING domain (UniProt P51948))` — result for “lacZ reporter activity”: 0.
`B1 (TRIM22 RING domain)` — result for “lacZ reporter activity”: 0.
For `KEQLEKHNDICAICYQDMKSAVITPCSHFFHAGCLKKWLYVQETCPLCHCHLKNSSQLP (RNF145 RING domain (UniProt Q96MT1))`, “lacZ reporter activity” read 0.
`B2 (RNF181 RING domain)` — result for “lacZ reporter activity”: 0.
`NTAPSLTVPECAICLQTCVHPVSLPCKHVFCYLCVKGASWLGKRCALCRQEIPEDFLDK (RNF146 RING domain (UniProt Q9NTX7))` — result for “lacZ reporter activity”: 0.

Set 2
Target: CCNB2, cyclin fold, Cln2 fusion (human)
Technique: yeast growth competition, sequencing
Matrix: yeast
Setting: strong parent motif
Baseline: not given
Reading: higher = stronger binding
Starting sequence: viral docking peptide; TSVRRALFTGGSD; partner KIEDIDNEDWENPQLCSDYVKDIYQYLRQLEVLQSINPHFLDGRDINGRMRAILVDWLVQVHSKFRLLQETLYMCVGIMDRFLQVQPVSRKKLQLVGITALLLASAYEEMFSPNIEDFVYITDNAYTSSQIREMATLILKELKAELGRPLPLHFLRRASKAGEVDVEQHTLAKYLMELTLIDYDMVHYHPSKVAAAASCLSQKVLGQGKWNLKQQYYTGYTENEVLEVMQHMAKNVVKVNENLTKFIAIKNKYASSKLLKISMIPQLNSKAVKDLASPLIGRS
`TSVRRALFTGGHD [S12H]`: “normalised enrichment score” 1.
Under “normalised enrichment score”, `TSVRRGLFTGGSD [A6G]` is recorded as 0.49.
`TSVRRALFTGVSD [G11V]`: “normalised enrichment score” 0.944.
Under “normalised enrichment score”, `TSVWRALFTGGSD [R4W]` is recorded as 0.0449.
`TSVRRALFTGHSD [G11H]`: “normalised enrichment score” 0.673.
`TSVRRHLFTGGSD [A6H]`: “normalised enrichment score” 0.574.
`TSVFRALFTGGSD [R4F]`: “normalised enrichment score” 0.185.
Under “normalised enrichment score”, `TSVRYALFTGGSD [R5Y]` is recorded as -0.159.

Set 3
Compound: O=c1[nH]c2ccccc2n1C1CCN(Cc2ccc(-c3[nH]c4cc5ncnc5cc4nc3-c3ccccc3)cc2)CC1
Read-out: enzyme activity
Tested at: 0.5 µM
The remaining activity was 99% (Aurora kinase A (AURKA, Homo sapiens, UniProt O14965)).
It gave 97.9% for remaining activity (Dual specificity tyrosine-phosphorylation-regulated kinase 1B (DYRK1B, Homo sapiens, UniProt Q9Y463); inhibitor, radiometric).
Serine/threonine-protein kinase TAO2 (TAOK2, Homo sapiens, UniProt Q9UL54); inhibitor; baseline: control — remaining activity: 98.8%.
The remaining activity was 101% (Ribosomal protein S6 kinase alpha-2 (RPS6KA2, Homo sapiens, UniProt Q15349); inhibitor; baseline: control).

Further values, each from its own experiment
`NCCCNCCSP(=O)(O)O` has a nuclei count of 0.407 z-score (mouse MPNST tumor cells; high-content nuclear imaging, refers to: cell number; 10 µM, 12 h, mean of 2 replicates; baseline: plate mean, higher = more cells).

Excerpt of the above (set 2):
`TSVFRALFTGGSD [R4F]`: “normalised enrichment score” 0.185.
Under “normalised enrichment score”, `TSVRYALFTGGSD [R5Y]` is recorded as -0.159.
